Experimental data of several laboratories.
Each numbered part is a random draw from the data of one study; scales do not carry over between parts. Changes are numbered by the printed parent chain.

Block 1
Target: BATF, bZIP domain (human)
Technique: DHFR protein complementation
Matrix: yeast
Notes: single substitutions, most at no-binding floor
Baseline: wild-type JUN-FOS pair
Direction: higher = stronger binding
Starting sequence: JUN, bZIP domain (human); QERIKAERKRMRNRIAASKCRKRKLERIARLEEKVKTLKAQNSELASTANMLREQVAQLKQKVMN; partner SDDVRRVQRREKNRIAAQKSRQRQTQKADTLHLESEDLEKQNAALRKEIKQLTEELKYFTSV
`V56K` has a binding fitness of -1 natural log.
With `K39A` the binding fitness was -0.265 natural log.
`L45F` has a binding fitness of -0.402 natural log.
For `L38E`, the binding fitness was -0.644 natural log.
`T37E` gave a binding fitness of 0.0658 natural log.
With `A57S` the binding fitness was -0.0856 natural log.
For `A57Q`, the binding fitness was -0.0636 natural log.
With `S47C` the binding fitness was -0.0044 natural log.
For `A40S`, the binding fitness was -0.032 natural log.
For `V56D`, the binding fitness was -1.46 natural log.
The binding fitness of `K34L` is reported as 0.00802 natural log.
For `A29Q`, the binding fitness was -0.107 natural log.
With `K39D` the binding fitness was -0.664 natural log.
For `K36N`, the binding fitness was -0.00384 natural log.
The binding fitness of `A57L` is reported as -0.121 natural log.
`E44G` gave a binding fitness of -0.177 natural log.
The binding fitness of `V35D` is reported as -0.934 natural log.
`T37A` gave a binding fitness of 0.0794 natural log.
`S43Q` has a binding fitness of 0.0873 natural log.
For `S47Q`, the binding fitness was 0.0445 natural log.
`L52A` gave a binding fitness of -1.16 natural log.
`L52C` gave a binding fitness of -1.09 natural log.
The binding fitness of `M51R` is reported as 0.0684 natural log.
`V56H` gave a binding fitness of -0.479 natural log.
The binding fitness of `T37N` is reported as 0.122 natural log.

Block 2
Target: Prothrombin, mature alpha-thrombin (F2, Homo sapiens, UniProt P00734)
Technique: aptamer microarray, sandwich
Molecule type: DNA with 2'F-ANA
Matrix: in vitro
Concentration: 200 nM
Notes: whole 15-mer aptamer, many near background
With: Cy3 exosite-II aptamer, 400 nM
Direction: higher = stronger binding
Strand: GGTTGGTGTGGTTGG
For `2'F-ANA at 1 3 6 7 8 11 15`, “mean fluorescence intensity” read 264 a.u.
`2'F-ANA at 3 6 7 9 13 15` — result for “mean fluorescence intensity”: 773 a.u.
For `2'F-ANA at 3 4 6 7 10 13 14 15`, “mean fluorescence intensity” read 177 a.u.
For `2'F-ANA at 2 3 4 5 8 15`, “mean fluorescence intensity” read 103 a.u.
`2'F-ANA at 1 4 5 6`: “mean fluorescence intensity” 57.6 a.u.
`2'F-ANA at 3 4 6 9 12 14` — result for “mean fluorescence intensity”: 308 a.u.
Under “mean fluorescence intensity”, `2'F-ANA at 3 5 7 9 10 11 13 15` is recorded as 56.6 a.u.
Under “mean fluorescence intensity”, `2'F-ANA at 1 2 3 11` is recorded as 218 a.u.
For `2'F-ANA at 2 5 6 7 9 10 13 14`, “mean fluorescence intensity” read 43.9 a.u.
For `2'F-ANA at 1 3 4 7 8 14 15`, “mean fluorescence intensity” read 89.9 a.u.
Under “mean fluorescence intensity”, `2'F-ANA at 1 2 3 5 8 10 11 12 13 14` is recorded as 48.1 a.u.
For `2'F-ANA at 1 2 3 10 11 12 15`, “mean fluorescence intensity” read 94.4 a.u.
For `2'F-ANA at 1 2 4 5 6 9 13 15`, “mean fluorescence intensity” read 52 a.u.
`2'F-ANA at 1 2 6 8 10 12 14 15` — result for “mean fluorescence intensity”: 62.6 a.u.
`2'F-ANA at 2 4 5 6 7 8 10 12 15` — result for “mean fluorescence intensity”: 50.7 a.u.
`2'F-ANA at 1 4 5 10 12 15` — result for “mean fluorescence intensity”: 47.7 a.u.

Block 3
Target: CCNE1, cyclin fold, Cln2 fusion (human)
Technique: yeast growth competition, sequencing
Matrix: yeast
Notes: weak parent motif
Baseline: not given
Direction: higher = stronger binding
Starting sequence: SAMHD1 docking peptide (human); ASKSRVQLFKDDP
`ASKSRVQLHKDDP [F9H]`: “normalised enrichment score” 0.0629.
For `ASKSRVQLFMDDP [K10M]`, “normalised enrichment score” read 0.347.
Under “normalised enrichment score”, `ASKSRPQLFKDDP [V6P]` is recorded as -0.443.
`ASKSRYQLFKDDP [V6Y]`: “normalised enrichment score” 0.16.
For `ASKCRVQLFKDDP [S4C]`, “normalised enrichment score” read 2.73.
For `AIKSRVQLFKDDP [S2I]`, “normalised enrichment score” read 0.143.
For `ASKSRVQLFADDP [K10A]`, “normalised enrichment score” read 0.192.
`ASKRRVQLFKDDP [S4R]`: “normalised enrichment score” 0.232.
`ASKSRVQDFKDDP [L8D]` — result for “normalised enrichment score”: 0.109.
Under “normalised enrichment score”, `ASKSRVQLFKDMP [D12M]` is recorded as 0.283.
For `ASKSRNQLFKDDP [V6N]`, “normalised enrichment score” read -0.114.
`ASKSIVQLFKDDP [R5I]` — result for “normalised enrichment score”: 0.225.
For `ASKVRVQLFKDDP [S4V]`, “normalised enrichment score” read 3.1.
`ASKSRVQLVKDDP [F9V]`: “normalised enrichment score” 0.114.
Under “normalised enrichment score”, `ASKSPVQLFKDDP [R5P]` is recorded as -0.309.
`ADKSRVQLFKDDP [S2D]` — result for “normalised enrichment score”: 0.294.
For `ASKSRKQLFKDDP [V6K]`, “normalised enrichment score” read 0.898.
For `ASKSRVQLFKDYP [D12Y]`, “normalised enrichment score” read 0.664.
Under “normalised enrichment score”, `ASKSSVQLFKDDP [R5S]` is recorded as -0.0604.
`ASKSRVQLKKDDP [F9K]`: “normalised enrichment score” -0.253.
For `ASKSRVQLFKLDP [D11L]`, “normalised enrichment score” read -0.109.
For `ASKSFVQLFKDDP [R5F]`, “normalised enrichment score” read 0.113.
Under “normalised enrichment score”, `ASKSNVQLFKDDP [R5N]` is recorded as -0.381.
`ASKTRVQLFKDDP [S4T]` — result for “normalised enrichment score”: 0.401.

Block 4
Target: Histone acetyltransferase KAT6A, winged helix 1, GST fusion (KAT6A, Homo sapiens, UniProt Q92794, residues 1-85)
Technique: protein binding microarray
Molecule type: double-stranded DNA, one strand shown
Matrix: in vitro
Concentration: not given
Notes: 8-mer, flanks averaged, mean of 2 arrays, mostly near background
Baseline: not given
Direction: higher = stronger binding
Construct (chain): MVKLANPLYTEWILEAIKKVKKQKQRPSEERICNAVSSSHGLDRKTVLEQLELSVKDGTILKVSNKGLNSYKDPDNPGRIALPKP
`GAGGCTAC` has an E-score of -0.0878.
The E-score of `ACATGAGG` is reported as -0.0941.
`CGCTCGGC` has an E-score of 0.32.
For `CGGTGAGA`, the E-score was 0.00536.
With `TAAAAGCA` the E-score was -0.126.
For `CACTTTAC`, the E-score was -0.101.
`GCATCACA` has an E-score of 0.00276.
With `TCGACAAA` the E-score was -0.0446.
`ACTTAATA` gave an E-score of -0.138.
With `GTACTCTA` the E-score was -0.0393.
`GAGCCCGA` has an E-score of 0.0245.
`GAAACATA` has an E-score of 0.0484.
`GTTGTCGA` has an E-score of -0.12.
The E-score of `AAGTCCCC` is reported as -0.0264.
For `ACTGCTAC`, the E-score was -0.229.
The E-score of `GCCATATA` is reported as 0.116.
`AGGCCATA` has an E-score of -0.0514.
`TAGTAAAA` gave an E-score of -0.00889.
`ATTTGGGG` gave an E-score of -0.124.
`GCTGTCAA` gave an E-score of -0.00865.
The E-score of `CTGCATCC` is reported as -0.242.

Block 5
Target: ABI1, truncated, D143A, DHFR fusion (Arabidopsis thaliana)
Technique: DHFR PCA, deep sequencing
Matrix: yeast
Notes: methotrexate growth selection, single substitutions
With: (+)-ABA 4.8 µM
Baseline: wild-type fitted maximum
Direction: higher = stronger binding
Starting sequence: PYL1, truncated, DHFR fusion (Arabidopsis thaliana); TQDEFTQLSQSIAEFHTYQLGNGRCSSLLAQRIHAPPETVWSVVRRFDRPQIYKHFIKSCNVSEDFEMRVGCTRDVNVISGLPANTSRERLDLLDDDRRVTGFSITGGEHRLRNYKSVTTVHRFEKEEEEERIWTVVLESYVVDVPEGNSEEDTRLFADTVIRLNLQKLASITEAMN; partner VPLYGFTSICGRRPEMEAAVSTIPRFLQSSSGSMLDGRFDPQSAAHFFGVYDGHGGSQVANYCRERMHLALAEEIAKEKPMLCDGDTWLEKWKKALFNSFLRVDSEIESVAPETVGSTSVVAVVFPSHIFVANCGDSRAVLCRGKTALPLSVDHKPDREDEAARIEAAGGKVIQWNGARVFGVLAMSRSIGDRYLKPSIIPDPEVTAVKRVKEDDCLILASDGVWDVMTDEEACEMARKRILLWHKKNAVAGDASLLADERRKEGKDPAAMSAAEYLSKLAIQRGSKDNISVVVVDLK
For `S63D`, “relative binding score” read 77.6%.
`E152H`: “relative binding score” 57.3%.
`E147L` — result for “relative binding score”: 61.1%.
Under “relative binding score”, `E130R` is recorded as 73.3%.
`T119I` — result for “relative binding score”: 24.1%.
`A35E`: “relative binding score” 11%.
For `V43F`, “relative binding score” read 44.7%.
Under “relative binding score”, `L28A` is recorded as 8.59%.
Under “relative binding score”, `N77D` is recorded as 75.6%.
`L20D`: “relative binding score” 75.9%.
`S26C`: “relative binding score” 67.6%.
`E147I`: “relative binding score” 55.1%.
`N85I`: “relative binding score” 66.7%.
`E152Y` — result for “relative binding score”: 59.5%.
For `D3H`, “relative binding score” read 59.7%.
Under “relative binding score”, `Q7V` is recorded as 70.1%.
Under “relative binding score”, `I33D` is recorded as -10.8%.
`S117E`: “relative binding score” 0.0368%.
For `L169K`, “relative binding score” read -1.97%.
`L166R`: “relative binding score” -1.78%.
Under “relative binding score”, `V143I` is recorded as 9.22%.
`L164D` — result for “relative binding score”: -2.24%.
For `I52S`, “relative binding score” read 62.6%.
For `I79H`, “relative binding score” read 69.7%.
Under “relative binding score”, `H34W` is recorded as 47.7%.

Block 6
Target: Protein max, full length (MAX, Homo sapiens, UniProt P61244-2, residues 1-151)
Technique: protein-binding microarray
Molecule type: double-stranded DNA, one strand shown
Matrix: in vitro
Concentration: not given
Notes: k-mer, scored over probes, only values ≥0.25
Direction: higher = stronger binding
With `ACCACGAG` the E-score was 0.436.
With `ACGCACGA` the E-score was 0.372.
For `GGGATCAC`, the E-score was 0.259.
The E-score of `ACGCGCGC` is reported as 0.287.
`CACACGCG` gave an E-score of 0.451.
With `AACATGAG` the E-score was 0.347.
With `GAACATGC` the E-score was 0.369.
The E-score of `ACGTGCTC` is reported as 0.456.
`TAGCGTGA` gave an E-score of 0.372.
For `ATGTGCGA`, the E-score was 0.361.
The E-score of `ACGAGGGC` is reported as 0.374.
With `CACCTGGG` the E-score was 0.312.
For `CATGCAGA`, the E-score was 0.307.
`GCATCACA` has an E-score of 0.255.
For `ACCATGCG`, the E-score was 0.461.
`CATGGCGC` gave an E-score of 0.32.
The E-score of `ACACCACG` is reported as 0.362.
The E-score of `CTCACGCC` is reported as 0.296.
For `CCGCCCCG`, the E-score was 0.275.
For `CATGCTAA`, the E-score was 0.329.
`AGCATGTC` has an E-score of 0.393.
`ACACGAGG` gave an E-score of 0.475.
For `CCGCACGC`, the E-score was 0.399.
With `CATGTTGG` the E-score was 0.308.
